Assay results pooled from the literature.
A part holds a random share of what one study measured. Substitutions count along the parent as printed.

Set 1
Target: CCND3, cyclin fold, Cln2 fusion (human)
Method: yeast growth competition, sequencing
Matrix: yeast
Setting: weak parent motif
Relative to: not given
Direction: higher = stronger binding
Starting sequence: PKN2 docking peptide (human); VSAVQKLDFSDTM; partner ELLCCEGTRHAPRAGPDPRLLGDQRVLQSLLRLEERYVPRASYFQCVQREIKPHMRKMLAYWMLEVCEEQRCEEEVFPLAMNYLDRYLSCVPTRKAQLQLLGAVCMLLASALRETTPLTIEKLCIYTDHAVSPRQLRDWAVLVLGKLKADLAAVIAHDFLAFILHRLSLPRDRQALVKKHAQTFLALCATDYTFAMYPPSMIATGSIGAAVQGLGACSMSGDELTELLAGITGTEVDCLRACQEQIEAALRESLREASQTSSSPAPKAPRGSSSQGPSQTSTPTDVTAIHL
Variant	normalised enrichment score
VSAVQKADFSDTM [L7A]	0.0428
VSASQKLDFSDTM [V4S]	0.0269
VDAVQKLDFSDTM [S2D]	0.0364
VSAMQKLDFSDTM [V4M]	0.0944
QSAVQKLDFSDTM [V1Q]	0.15
VSAVQKLDASDTM [F9A]	0.115

Set 2
Target: RNA binding protein fox-1 homolog 2, RRM domain, GST-SBP tag (RBFOX2, Homo sapiens, UniProt O43251-10, residues 100-194)
Method: RNA Bind-n-Seq
Form: RNA
Matrix: in vitro
Tested at: 365 nM
Setting: natural RNA segment, single round, ends assumed
Relative to: no-protein control
Direction: higher = stronger binding
Residues (chain): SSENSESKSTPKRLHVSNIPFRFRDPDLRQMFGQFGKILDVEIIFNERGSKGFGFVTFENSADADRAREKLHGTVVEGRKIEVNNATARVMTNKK
Sequence	RBNS enrichment (R)
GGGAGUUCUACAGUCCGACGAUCAAGGAAUUCACACACGACAGUUGACAGGUCUUCACGCAGGCUGGUUGGUAACGUGCUGCCAGCACAGGGCUGGGUGAUACGUACACCCUAAGCCGGGGGUGCCUGGGGCUUGGAAUUCUCGGGUGCCAA	0.29
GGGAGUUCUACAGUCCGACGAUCGGCAGAUGCCUGACAGAGAGUGGGUUGGCAGACAACACACUAGCAUUUUCACGGGUGUGGGCACAUGGGUGUGGCACCUGGACGUGUGCAGCAUGUGGCGGUCUGUGUGAUGGAAUUCUCGGGUGCCAA	2.32
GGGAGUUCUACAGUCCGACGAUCCUGUCCCUGUAUCCAGAGCUGGGCCACAGAGGUUUGUAGAGCCUGGGACAGGACACACCAGAGCUAAGGCCGCAUUGCUUUUGUCAAAGUCUCCUCCUCUGACUGGUUUCUGGAAUUCUCGGGUGCCAA	0.303
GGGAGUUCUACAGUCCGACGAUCAGAAGAAACAUUCCAAAAUCAGGGCCUCCCUGUUCUUUCCUCCCCAUCCCUAGCUCCUGCAAGAGAAAGUCCAGGCUUUGGGAGCAGAUGGCAGAGGGAGGGAGUAAAGAUGGAAUUCUCGGGUGCCAA	0.295
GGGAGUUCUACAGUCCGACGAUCAGCAGGGACGCCUUGUCCCCAAGACUUCUCCCCAACUUGGCUCCAUUCCUGCAUUCUGCCAUAGGAAUCACAACUUCCCACAUCAGGCCAUGCUUGCCUAAGACCUCGUUUGGAAUUCUCGGGUGCCAA	0.807
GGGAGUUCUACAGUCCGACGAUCGCUUUACAUCAUUGCUACUUGAUUUUGUUAUGCAACUCAGAUCUCAGAUCUCAGAAUACUUAACCAAGCCAUUACAUCUUAAAACAAAACAAGUAGCAUACAUUUUGUAAUGGAAUUCUCGGGUGCCAA	0.46
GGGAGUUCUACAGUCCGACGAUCUUUCUUCUUUUCUUUUCCUGCCAAGUUUUCGGUGGCAUUUGUAGAAGCUGGUGUGAAAGGCUAGGAGGCAUUGUUUUCUAUUAUUCCUCGGUGAAGCCUUUUCCCAGAGCUGGAAUUCUCGGGUGCCAA	1.16
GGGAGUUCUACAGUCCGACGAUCCCUCCUGCAGCUGUGCCGUCCACACCUCUAGGUCGCCAGAGCCCUGGCCCCCAGCCCCCAGCAAGCCUGAGCCCGGGAAGAACCAGAGGCCCUCCCGAGAGACCCAGUCAUGGAAUUCUCGGGUGCCAA	0.306
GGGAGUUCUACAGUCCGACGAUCGAGUGGGGAGCAUGGAACUCCUGGGCUCUUGUGGGGACGUUCAGGGUAUCGGGGUGCGAGGUCUGUCUGCACCGGCCCCCACAUCUAACCAGGCCCUGAUGUAGGGGUCGUGGAAUUCUCGGGUGCCAA	0.853
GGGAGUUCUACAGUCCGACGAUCGGCCACCCUGCCCAGGACCCAGGCCCGCCUCCCCCUCCACACUCAGGAUGUCCUGCUCCAUCUGGCCGGCUCACUCCGUGUGGCCUGCCUUUGCUGACCGUUUUGGGGUUUGGAAUUCUCGGGUGCCAA	0.338
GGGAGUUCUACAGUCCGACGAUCAUUACGCAAGGAAAGAACGGGAAGAAAGGAUAUUUUGCUGCAAGAUUAAGUUACAGUUCUCAGUGGAAGUCAUUUGUGAUGGGGUCUAAUUCUUAUUACUUCAACAAAUAUGGAAUUCUCGGGUGCCAA	0.585

Set 3
Target: Centromere-binding protein 1, full length, His-tagged (CBF1, Saccharomyces cerevisiae, UniProt P17106, residues 1-351)
Chain of UniProt P17106 (whole entry, looked up): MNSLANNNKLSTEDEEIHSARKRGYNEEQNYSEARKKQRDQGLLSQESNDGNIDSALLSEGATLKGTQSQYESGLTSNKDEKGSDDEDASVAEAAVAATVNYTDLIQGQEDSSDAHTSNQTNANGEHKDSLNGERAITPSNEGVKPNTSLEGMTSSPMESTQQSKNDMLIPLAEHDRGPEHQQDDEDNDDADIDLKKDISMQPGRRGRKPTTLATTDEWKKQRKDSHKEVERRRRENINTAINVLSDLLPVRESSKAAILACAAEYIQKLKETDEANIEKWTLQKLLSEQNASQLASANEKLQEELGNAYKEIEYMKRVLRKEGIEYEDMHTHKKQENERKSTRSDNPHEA
Method: competition protein-binding microarray
Form: double-stranded DNA, one strand shown
Matrix: in vitro
Tested at: 2 µM
Setting: whole 60-bp probe, lowest competitor level
Added: Pho4 competitor, 0.05 µM
Direction: higher = stronger binding
Sequence	fluorescence intensity [a.u.]
CGTCCTAGTGATTGGACAGTGGGTGCCATGAGGAAGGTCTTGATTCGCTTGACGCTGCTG	80.4
AAATTACTAAGTTGCACTGTGGGTGACGCCGTATGAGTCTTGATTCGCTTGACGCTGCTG	57.7
GCCGCCATTCCCCATCACAATTTTGGGCAGGATAGGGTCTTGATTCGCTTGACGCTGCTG	70.7
CATACCCAACCTTAACACGTGTTTTAAGATATTTGTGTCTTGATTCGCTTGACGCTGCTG	1930
CATACCCAACCTTGGCCAGTGGGTGAAGATATTTGTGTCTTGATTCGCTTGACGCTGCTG	65.4
AAATTACTAAGTTGATTAGTGGGTGACGCCGTATGAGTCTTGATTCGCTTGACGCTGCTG	79
GTCTTGTCTCATTGGGTGGTGGGTGTCCCCACTTCAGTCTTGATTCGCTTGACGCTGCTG	84.3
TACAGTTGGGTCCATCACATGCAAACATTTCTCCAAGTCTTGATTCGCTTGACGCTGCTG	372
GGAATTCCAGCACCACTCGTGCAAAACGTACCAAATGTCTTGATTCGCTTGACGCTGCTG	90.4
AAATTACTAAGTTTTCACGTGTCATACCCCGTATGAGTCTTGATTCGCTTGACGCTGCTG	1320
GTCTTGTCTCATTGAGGGGTGGGTGTCCCCACTTCAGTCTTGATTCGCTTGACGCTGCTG	68.7

Mixed results
Substance	target	test	test system	setting	scale	endpoint	result
PhoQ, residues 284 288 289 292 302 303 ALASRC	PhoP, residues 12 14 15 18 19 LYHSL (Escherichia coli, UniProt P23836)	Sort-seq, measured: YFP reporter	E. coli	PhoQ-PhoP variant library, added: 10 µM Mg2+	relative to: high Mg2+ state, higher = stronger signaling	fold induction	13.5

Repeated from above (set 2):
Sequence	RBNS enrichment (R)
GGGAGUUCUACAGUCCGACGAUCAGAAGAAACAUUCCAAAAUCAGGGCCUCCCUGUUCUUUCCUCCCCAUCCCUAGCUCCUGCAAGAGAAAGUCCAGGCUUUGGGAGCAGAUGGCAGAGGGAGGGAGUAAAGAUGGAAUUCUCGGGUGCCAA	0.295
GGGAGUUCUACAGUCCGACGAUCAGCAGGGACGCCUUGUCCCCAAGACUUCUCCCCAACUUGGCUCCAUUCCUGCAUUCUGCCAUAGGAAUCACAACUUCCCACAUCAGGCCAUGCUUGCCUAAGACCUCGUUUGGAAUUCUCGGGUGCCAA	0.807
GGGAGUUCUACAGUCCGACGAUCGCUUUACAUCAUUGCUACUUGAUUUUGUUAUGCAACUCAGAUCUCAGAUCUCAGAAUACUUAACCAAGCCAUUACAUCUUAAAACAAAACAAGUAGCAUACAUUUUGUAAUGGAAUUCUCGGGUGCCAA	0.46
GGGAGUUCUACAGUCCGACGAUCUUUCUUCUUUUCUUUUCCUGCCAAGUUUUCGGUGGCAUUUGUAGAAGCUGGUGUGAAAGGCUAGGAGGCAUUGUUUUCUAUUAUUCCUCGGUGAAGCCUUUUCCCAGAGCUGGAAUUCUCGGGUGCCAA	1.16
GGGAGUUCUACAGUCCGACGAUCCCUCCUGCAGCUGUGCCGUCCACACCUCUAGGUCGCCAGAGCCCUGGCCCCCAGCCCCCAGCAAGCCUGAGCCCGGGAAGAACCAGAGGCCCUCCCGAGAGACCCAGUCAUGGAAUUCUCGGGUGCCAA	0.306
